Measurements collected from several papers.
Every numbered part comes from another study and shows a few of its results, in no order.
Sequence of UniProt P10721 (whole entry, unmodified, looked up): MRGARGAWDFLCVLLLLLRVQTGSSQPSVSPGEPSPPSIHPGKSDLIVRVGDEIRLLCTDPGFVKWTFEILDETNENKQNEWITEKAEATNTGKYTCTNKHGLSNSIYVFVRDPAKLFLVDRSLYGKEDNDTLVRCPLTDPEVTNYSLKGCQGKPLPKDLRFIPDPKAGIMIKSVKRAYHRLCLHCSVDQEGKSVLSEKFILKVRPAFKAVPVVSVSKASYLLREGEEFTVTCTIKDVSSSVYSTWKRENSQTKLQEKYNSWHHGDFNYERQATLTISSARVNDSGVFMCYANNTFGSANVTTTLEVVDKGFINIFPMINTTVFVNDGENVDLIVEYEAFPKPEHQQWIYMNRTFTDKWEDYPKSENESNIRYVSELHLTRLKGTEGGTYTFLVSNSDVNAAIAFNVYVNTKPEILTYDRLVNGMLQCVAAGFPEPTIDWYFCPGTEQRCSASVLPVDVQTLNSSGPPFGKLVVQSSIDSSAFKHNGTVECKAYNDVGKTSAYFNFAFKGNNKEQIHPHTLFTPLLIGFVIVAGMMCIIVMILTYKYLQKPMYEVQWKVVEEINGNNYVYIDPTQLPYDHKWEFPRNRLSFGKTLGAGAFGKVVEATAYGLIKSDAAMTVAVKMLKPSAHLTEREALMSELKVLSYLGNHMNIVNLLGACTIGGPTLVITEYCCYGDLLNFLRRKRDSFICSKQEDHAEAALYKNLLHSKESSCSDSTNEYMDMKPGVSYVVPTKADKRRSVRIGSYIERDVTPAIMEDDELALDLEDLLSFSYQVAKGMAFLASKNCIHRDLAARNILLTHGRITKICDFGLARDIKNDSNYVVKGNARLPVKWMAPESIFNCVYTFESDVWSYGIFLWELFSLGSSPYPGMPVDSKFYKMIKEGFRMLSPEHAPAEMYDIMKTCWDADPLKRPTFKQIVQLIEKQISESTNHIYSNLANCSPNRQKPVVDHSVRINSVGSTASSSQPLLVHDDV
Sequence of UniProt Q9NRM7 (whole entry, looked up): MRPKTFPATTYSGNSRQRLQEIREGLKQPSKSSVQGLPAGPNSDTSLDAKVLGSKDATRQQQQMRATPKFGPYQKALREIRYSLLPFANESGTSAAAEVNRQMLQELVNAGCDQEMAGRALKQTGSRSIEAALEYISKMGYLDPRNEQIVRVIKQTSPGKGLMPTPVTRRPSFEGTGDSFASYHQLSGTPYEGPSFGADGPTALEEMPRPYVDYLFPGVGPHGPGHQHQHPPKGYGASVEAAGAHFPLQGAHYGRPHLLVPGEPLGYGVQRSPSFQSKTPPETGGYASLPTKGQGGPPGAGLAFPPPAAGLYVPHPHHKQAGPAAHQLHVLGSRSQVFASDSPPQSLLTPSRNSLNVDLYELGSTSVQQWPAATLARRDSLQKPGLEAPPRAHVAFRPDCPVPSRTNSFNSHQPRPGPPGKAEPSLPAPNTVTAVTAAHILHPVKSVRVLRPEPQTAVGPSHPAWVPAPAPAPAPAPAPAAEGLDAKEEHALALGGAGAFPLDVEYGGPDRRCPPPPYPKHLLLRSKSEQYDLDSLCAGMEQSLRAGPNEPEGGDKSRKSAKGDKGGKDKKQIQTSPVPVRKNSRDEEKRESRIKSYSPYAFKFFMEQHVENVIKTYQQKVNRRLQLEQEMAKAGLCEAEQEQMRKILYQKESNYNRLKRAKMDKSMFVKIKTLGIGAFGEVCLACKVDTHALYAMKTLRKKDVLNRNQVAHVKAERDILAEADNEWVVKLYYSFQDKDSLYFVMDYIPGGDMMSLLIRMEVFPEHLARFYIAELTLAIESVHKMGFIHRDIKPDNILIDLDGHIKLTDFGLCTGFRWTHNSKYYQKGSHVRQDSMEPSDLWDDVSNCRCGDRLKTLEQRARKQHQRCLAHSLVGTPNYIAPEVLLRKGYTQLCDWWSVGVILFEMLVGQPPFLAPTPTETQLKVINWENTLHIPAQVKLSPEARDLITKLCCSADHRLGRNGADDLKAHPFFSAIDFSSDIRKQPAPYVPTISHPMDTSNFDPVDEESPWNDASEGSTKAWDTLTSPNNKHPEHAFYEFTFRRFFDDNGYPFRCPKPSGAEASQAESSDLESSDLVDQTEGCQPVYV
Sequence of UniProt Q9UBE8 (whole entry, looked up): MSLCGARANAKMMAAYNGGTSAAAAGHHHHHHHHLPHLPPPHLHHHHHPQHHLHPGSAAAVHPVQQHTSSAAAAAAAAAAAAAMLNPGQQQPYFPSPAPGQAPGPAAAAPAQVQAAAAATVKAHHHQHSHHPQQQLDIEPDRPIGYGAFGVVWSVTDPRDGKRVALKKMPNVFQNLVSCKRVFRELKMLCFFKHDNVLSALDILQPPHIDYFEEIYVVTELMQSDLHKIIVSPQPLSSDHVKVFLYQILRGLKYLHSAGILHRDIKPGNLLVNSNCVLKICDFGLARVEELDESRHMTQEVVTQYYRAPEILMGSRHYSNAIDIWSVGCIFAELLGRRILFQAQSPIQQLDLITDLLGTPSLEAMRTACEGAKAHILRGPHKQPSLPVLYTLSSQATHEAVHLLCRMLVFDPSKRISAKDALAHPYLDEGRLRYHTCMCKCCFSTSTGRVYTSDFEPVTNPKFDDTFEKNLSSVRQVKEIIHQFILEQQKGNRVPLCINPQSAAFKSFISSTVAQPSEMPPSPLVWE
Sequence of UniProt O14578 (whole entry, looked up): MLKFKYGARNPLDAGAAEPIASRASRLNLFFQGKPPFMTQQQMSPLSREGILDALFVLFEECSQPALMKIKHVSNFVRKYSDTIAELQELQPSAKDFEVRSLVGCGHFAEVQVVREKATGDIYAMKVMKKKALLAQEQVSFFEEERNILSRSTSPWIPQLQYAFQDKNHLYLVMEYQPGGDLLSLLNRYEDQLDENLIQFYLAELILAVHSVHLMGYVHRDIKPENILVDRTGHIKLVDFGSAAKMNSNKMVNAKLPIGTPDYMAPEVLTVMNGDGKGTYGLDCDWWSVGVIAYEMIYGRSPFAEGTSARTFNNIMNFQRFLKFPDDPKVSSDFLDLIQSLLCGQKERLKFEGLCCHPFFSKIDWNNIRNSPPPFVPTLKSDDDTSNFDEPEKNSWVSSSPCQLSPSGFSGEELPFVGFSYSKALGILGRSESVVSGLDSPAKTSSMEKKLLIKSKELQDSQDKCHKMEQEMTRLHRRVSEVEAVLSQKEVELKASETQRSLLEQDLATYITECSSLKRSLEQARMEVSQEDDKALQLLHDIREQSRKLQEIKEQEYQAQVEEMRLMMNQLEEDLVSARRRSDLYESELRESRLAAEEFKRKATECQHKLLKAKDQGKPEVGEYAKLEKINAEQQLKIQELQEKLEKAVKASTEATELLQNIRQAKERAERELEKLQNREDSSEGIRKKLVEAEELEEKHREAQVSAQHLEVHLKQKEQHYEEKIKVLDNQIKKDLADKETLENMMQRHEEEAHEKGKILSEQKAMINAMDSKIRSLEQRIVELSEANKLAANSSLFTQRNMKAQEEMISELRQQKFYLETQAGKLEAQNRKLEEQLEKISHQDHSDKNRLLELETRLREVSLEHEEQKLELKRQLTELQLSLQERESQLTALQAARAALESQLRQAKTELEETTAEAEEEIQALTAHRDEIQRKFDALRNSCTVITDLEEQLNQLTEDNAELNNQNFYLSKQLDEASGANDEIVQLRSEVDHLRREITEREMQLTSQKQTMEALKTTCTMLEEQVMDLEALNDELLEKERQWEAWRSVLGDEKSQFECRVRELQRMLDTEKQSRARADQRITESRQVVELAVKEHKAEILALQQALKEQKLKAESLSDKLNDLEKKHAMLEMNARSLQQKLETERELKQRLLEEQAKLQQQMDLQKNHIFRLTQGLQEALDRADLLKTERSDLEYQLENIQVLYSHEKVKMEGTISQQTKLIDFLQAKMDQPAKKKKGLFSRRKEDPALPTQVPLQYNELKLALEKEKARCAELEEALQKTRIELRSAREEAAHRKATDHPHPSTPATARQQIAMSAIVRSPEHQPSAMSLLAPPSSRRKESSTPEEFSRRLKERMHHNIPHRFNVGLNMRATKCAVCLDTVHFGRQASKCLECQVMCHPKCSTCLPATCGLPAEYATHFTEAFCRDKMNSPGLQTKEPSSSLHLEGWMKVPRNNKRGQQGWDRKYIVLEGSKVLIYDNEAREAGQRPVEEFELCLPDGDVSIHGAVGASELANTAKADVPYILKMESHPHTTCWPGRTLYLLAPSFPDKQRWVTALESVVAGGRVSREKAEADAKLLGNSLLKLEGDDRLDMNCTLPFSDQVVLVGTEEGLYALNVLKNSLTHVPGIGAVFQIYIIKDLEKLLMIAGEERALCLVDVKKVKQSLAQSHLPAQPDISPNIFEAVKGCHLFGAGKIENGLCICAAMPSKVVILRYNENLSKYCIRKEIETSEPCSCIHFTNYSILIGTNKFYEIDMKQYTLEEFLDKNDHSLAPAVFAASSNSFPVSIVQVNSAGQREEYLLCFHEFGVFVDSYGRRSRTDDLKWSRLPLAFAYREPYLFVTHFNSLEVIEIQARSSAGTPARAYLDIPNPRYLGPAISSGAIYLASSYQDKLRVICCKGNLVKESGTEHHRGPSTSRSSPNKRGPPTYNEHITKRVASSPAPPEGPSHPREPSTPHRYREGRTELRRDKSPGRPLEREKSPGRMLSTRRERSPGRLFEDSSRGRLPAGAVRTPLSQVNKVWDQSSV
Sequence of UniProt Q15208 (whole entry, looked up): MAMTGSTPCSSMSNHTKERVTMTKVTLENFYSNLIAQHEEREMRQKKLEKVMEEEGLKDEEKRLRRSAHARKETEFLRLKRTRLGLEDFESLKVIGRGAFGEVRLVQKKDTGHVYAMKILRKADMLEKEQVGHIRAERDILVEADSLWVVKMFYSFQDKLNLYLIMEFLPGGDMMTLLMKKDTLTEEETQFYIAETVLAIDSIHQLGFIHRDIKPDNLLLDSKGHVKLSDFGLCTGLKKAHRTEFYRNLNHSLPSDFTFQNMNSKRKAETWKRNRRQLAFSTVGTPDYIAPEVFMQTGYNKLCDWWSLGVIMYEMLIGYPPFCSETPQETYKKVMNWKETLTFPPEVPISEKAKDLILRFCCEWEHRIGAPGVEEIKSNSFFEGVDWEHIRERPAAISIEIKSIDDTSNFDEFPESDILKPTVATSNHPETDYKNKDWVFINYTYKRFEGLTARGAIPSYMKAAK

Sample 1
SMILES: CNC(=O)Nc1ccc2c(c1)[C@@]1(CC2)OC(=O)N(CC(=O)N(Cc2ccc(F)cc2)[C@@H](C)C(F)(F)F)C1=O
Observed: cell-free assay
Technique: competition with immobilised ligand
Tested at: 1 µM
| target | remaining binding |
| --- | --- |
| CIT (Homo sapiens, UniProt O14578) | 100% |
| EGFR (Homo sapiens, UniProt P00533, L861Q) | 100% |
| PRKG1 (Homo sapiens, UniProt Q13976) | 100% |
| Tyrosine-protein kinase ABL1, non-phosphorylated (ABL1, Homo sapiens, UniProt P00519) | 93% |
| Tyrosine-protein kinase ABL1, phosphorylated (ABL1, Homo sapiens, UniProt P00519, M351T) | 88% |
| LATS2 (Homo sapiens, UniProt Q9NRM7) | 68% |
| TNIK (Homo sapiens, UniProt Q9UKE5) | 87% |
| KIT (Homo sapiens, UniProt P10721) | 94% |
| DDR1 (Homo sapiens, UniProt Q08345) | 100% |
| MAP4K5 (Homo sapiens, UniProt Q9Y4K4) | 100% |
| PIK3C2B (Homo sapiens, UniProt O00750) | 99% |
| YES1 (Homo sapiens, UniProt P07947) | 85% |
| KIT (Homo sapiens, UniProt P10721, V559D/V654A) | 83% |
| NLK (Homo sapiens, UniProt Q9UBE8) | 77% |
| NEK11 (Homo sapiens, UniProt Q8NG66) | 84% |
| SGK3 (Homo sapiens, UniProt Q96BR1) | 72% |
| KIT (Homo sapiens, UniProt P10721, A829P) | 100% |
| CDKL5 (Homo sapiens, UniProt O76039) | 82% |
| MAP3K11 (Homo sapiens, UniProt Q16584) | 91% |
| STK38 (Homo sapiens, UniProt Q15208) | 79% |
| FGFR2 (Homo sapiens, UniProt P21802) | 87% |
| CLK4 (Homo sapiens, UniProt Q9HAZ1) | 78% |

Sample 2
SMILES: COc1ccc(-c2c(Nc3ccccn3)[nH]c3c(C4=CCCCC4)c(-c4ccccc4)nn3c2=O)cc1
Medium: plasma
Route: oral
| assay | system | setting | plasma concentration, median [ng/mL] |
| --- | --- | --- | --- |
| – | human patients | 150 mg once daily, 2 h, cycle 1 | 5010 |
| – | human patients | 150 mg once daily, 0 h, cycle 1 | 3230 |
| – | human patients | 200 mg once daily, 8 h, cycle 1 | 6030 |
| LC-MS/MS | human | 200 mg twice daily, 2 h | 12800 |
| – | human patients | 100 mg once daily, 24 h, cycle 1 | 4900 |
| – | human patients | 150 mg once daily, 4 h, cycle 1 | 4470 |
| – | human patients | 150 mg once daily, 3 h, cycle 1 | 4940 |
| LC-MS/MS | human | 200 mg twice daily, 8 h | 9530 |
| – | human patients | 200 mg once daily, 6 h, cycle 1 | 7300 |
| – | human patients | 200 mg once daily, 4 h, cycle 1 | 5720 |
| – | human patients | 100 mg once daily, 3 h, cycle 1 | 5470 |
| LC-MS/MS | human | 50 mg once daily, 0 h, cycle 1 | 1170 |

Sample 3
Target: Serine/threonine-protein kinase 4 (STK4, Homo sapiens, UniProt Q13043)
Observed: enzyme activity
Action: inhibitor
Tested at: 0.5 µM
Reference: control
Target sequence (Q13043 1-487): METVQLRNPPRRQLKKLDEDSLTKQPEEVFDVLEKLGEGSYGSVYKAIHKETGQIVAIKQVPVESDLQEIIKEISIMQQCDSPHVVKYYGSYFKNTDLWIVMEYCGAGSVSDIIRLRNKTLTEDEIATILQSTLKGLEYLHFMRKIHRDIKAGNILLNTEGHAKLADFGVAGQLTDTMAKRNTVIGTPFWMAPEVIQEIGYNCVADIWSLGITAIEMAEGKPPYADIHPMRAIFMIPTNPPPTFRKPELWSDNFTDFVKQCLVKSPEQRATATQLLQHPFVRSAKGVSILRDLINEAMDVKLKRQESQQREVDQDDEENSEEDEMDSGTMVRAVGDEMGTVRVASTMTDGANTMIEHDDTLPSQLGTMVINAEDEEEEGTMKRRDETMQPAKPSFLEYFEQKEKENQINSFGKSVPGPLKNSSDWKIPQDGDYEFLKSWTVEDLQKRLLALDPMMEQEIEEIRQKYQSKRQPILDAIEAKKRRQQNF
| Compound | remaining activity |
| --- | --- |
| Cc1cncc2cccc(S(=O)(=O)N3CCCN(C(=O)CN)C[C@@H]3C)c12 | 95.4% |
| O=C1Cc2c([nH]c3ccc([N+](=O)[O-])cc23)-c2ccccc2N1 | 52.3% |
| CC[n+]1c(/C=C/N(C)c2ccccc2)n(-c2ccccc2)c2ccc(-c3nc4ccccc4s3)cc21 | 98.3% |
| Nc1nc(Nc2ccc(S(N)(=O)=O)cc2)nn1C(=O)c1c(F)cccc1F | 19.9% |
| CC#CC(=O)Nc1cc2c(Nc3ccc(F)c(Cl)c3)ncnc2cn1 | 98.7% |
| COc1ccc(S(=O)(=O)N(CCO)c2ccccc2CN(C)CC=Cc2ccc(Cl)cc2)cc1 | 94.2% |
| COc1cc(Nc2c(C#N)cnc3cc(OCCCN4CCN(C)CC4)c(OC)cc23)c(Cl)cc1Cl | 7.4% |
| CCc1[nH]c(-c2ccc(OC)cc2)nc1-c1ccncc1 | 106% |
| NC(=O)c1ccc(N(C(N)=O)c2c(F)cccc2F)nc1-c1ccc(F)cc1F | 101% |
| Nc1ncnc2c1cnn2-c1ccccc1 | 96.8% |
| CSc1nc(-c2ccnc(N[C@@H](C)c3ccccc3)c2)c(-c2ccc(F)cc2)[nH]1 (racemic) | 89.8% |
| N#CC(=C(N)Sc1ccc(N)cc1)c1ccccc1C(F)(F)F | 89.7% |
| Nc1nccc(-c2c(-c3ccc(F)cc3)ncn2C2CCNCC2)n1 | 103% |
| CCCC(=O)Oc1ccc2[nH]c(C(=O)c3cc4ccccc4[nH]3)cc2c1 | 96.8% |
| O=S(=O)(NCCNC/C=C/c1ccc(Br)cc1)c1cccc2cnccc12 | 92.6% |
| CC(C)(C)n1nc(Cc2cccc3ccccc23)c2c(N)ncnc21 | 85.7% |
| Cc1cc(Nc2nc(-c3ccccc3)nc3ccccc23)n[nH]1 | 58% |
| Oc1ccc(Nc2nc(-c3ccc(Cl)cc3)cs2)cc1 | 106% |
| Cc1ccc(NC2=CC(=O)c3sc(C)nc3C2=O)cc1 | 93.5% |
| CC(=O)c1ccc(N2CCOCC2)cc1O | 102% |
| O=C1NC(=O)C(c2c[nH]c3ccccc23)=C1c1c[nH]c2ccccc12 | 61.8% |

Sample 4
Host: mouse
Medium: microsomes or S9
Tested at: 2 µM
Time: 0.5 h
| Structure (SMILES) | remaining compound [%] |
| --- | --- |
| Oc1ccc([C@H]2Oc3cc(O)cc(O)c3C[C@H]2O)cc1 | 83.8 |
| CN1CCCn2nc(C(=O)N(C)Cc3cc4cc(F)ccc4[nH]3)cc2C1 | 16.6 |
| O=C(O)c1cc2ccc3oc(-c4ccccc4)nc3c2n1Cc1cccc(Cl)c1 | 63.6 |
| COc1cc(=O)[nH]cc1C(=O)N1CCCC1c1cncc(C)c1 (centres unmarked) | 88.5 |
| COc1cc(=O)[nH]cc1C(=O)N1CCCC1C1CCCCC1 (centres unmarked) | 67.2 |
| CC(C)C(CCN1CCN(C)CC1)c1ccco1 (centres unmarked) | 1.93 |
| Cn1ccnc1/C=N/Nc1nncc2ccccc12 | 10.4 |
| Fc1cc(F)cc(-c2cncc(COc3ccccc3)c2)c1 | 0.0868 |
| O=C1OC2(CCCN(C(=O)Cc3cccc4ccccc34)C2)c2ccccc21 (centres unmarked) | 0.92 |
| Cn1c(=O)c2c(ncn2CC(O)C/N=C2\CCCCCN2)n(C)c1=O (centres unmarked) | 84.4 |

A few entries again (sample 4):
| Structure (SMILES) | remaining compound [%] |
| --- | --- |
| O=C(O)c1cc2ccc3oc(-c4ccccc4)nc3c2n1Cc1cccc(Cl)c1 | 63.6 |
| COc1cc(=O)[nH]cc1C(=O)N1CCCC1c1cncc(C)c1 (centres unmarked) | 88.5 |
| COc1cc(=O)[nH]cc1C(=O)N1CCCC1C1CCCCC1 (centres unmarked) | 67.2 |
| CC(C)C(CCN1CCN(C)CC1)c1ccco1 (centres unmarked) | 1.93 |
| Cn1ccnc1/C=N/Nc1nncc2ccccc12 | 10.4 |
| Fc1cc(F)cc(-c2cncc(COc3ccccc3)c2)c1 | 0.0868 |
| O=C1OC2(CCCN(C(=O)Cc3cccc4ccccc34)C2)c2ccccc21 (centres unmarked) | 0.92 |
| Cn1c(=O)c2c(ncn2CC(O)C/N=C2\CCCCCN2)n(C)c1=O (centres unmarked) | 84.4 |
